Assay results of several laboratories.
Numbered parts are unrelated; each lists some results of a single study.
Sequence of UniProt P23975 (whole entry, looked up): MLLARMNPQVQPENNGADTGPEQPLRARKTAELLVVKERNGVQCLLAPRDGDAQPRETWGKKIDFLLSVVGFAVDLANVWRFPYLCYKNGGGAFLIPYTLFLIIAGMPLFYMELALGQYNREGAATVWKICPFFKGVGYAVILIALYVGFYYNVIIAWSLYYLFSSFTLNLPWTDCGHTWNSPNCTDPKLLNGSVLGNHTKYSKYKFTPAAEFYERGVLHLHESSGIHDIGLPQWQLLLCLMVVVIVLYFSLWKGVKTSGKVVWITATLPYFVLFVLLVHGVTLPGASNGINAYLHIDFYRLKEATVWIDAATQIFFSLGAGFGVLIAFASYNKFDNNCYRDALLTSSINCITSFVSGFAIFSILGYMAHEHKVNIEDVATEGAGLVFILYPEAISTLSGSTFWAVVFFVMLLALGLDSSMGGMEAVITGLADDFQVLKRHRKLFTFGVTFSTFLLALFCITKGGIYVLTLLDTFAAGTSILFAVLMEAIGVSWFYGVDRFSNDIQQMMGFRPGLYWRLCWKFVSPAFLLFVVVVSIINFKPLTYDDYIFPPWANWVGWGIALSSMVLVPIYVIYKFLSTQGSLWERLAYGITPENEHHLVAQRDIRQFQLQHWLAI
Sequence of UniProt Q01959 (whole entry, looked up): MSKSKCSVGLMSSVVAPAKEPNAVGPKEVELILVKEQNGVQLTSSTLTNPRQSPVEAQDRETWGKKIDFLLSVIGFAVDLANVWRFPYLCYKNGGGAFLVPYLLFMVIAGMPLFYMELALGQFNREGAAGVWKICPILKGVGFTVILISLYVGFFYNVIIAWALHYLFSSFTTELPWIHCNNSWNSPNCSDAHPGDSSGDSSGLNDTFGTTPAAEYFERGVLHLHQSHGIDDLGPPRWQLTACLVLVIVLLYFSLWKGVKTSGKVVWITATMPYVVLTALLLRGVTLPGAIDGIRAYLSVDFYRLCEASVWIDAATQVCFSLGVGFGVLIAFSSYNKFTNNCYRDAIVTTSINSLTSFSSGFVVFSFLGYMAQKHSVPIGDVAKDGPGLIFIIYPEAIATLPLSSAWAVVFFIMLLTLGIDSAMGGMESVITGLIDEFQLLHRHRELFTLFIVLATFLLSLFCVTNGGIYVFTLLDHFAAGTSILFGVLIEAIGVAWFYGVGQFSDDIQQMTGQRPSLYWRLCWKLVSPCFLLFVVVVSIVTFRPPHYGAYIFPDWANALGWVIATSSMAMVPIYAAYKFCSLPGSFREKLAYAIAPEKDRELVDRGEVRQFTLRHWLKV
Sequence of UniProt P11229 (whole entry, looked up): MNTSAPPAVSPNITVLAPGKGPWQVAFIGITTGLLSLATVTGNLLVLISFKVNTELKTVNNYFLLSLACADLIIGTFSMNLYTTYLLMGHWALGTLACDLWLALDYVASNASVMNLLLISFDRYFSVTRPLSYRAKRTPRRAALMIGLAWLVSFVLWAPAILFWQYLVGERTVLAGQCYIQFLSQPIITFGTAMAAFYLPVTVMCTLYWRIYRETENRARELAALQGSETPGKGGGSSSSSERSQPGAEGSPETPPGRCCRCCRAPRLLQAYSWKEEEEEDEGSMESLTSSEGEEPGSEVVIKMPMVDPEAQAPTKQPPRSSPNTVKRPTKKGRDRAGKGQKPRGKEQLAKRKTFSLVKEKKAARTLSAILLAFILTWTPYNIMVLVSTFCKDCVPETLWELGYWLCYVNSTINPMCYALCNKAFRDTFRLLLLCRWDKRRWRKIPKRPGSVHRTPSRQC

Block 1 — concentration: 10 µM; endpoint: inhibition
Structure (SMILES): CNCc1ccccc1-c1csc([C@@H](C)Nc2nc(C)nc3cc(OC)c(OC)cc23)c1
Sodium-dependent dopamine transporter (SLC6A3, Homo sapiens, UniProt Q01959); binding, radioligand binding: 77.2%
Sodium-dependent noradrenaline transporter (SLC6A2, Homo sapiens, UniProt P23975); binding, radioligand binding: 84%
Sodium-dependent serotonin transporter (SLC6A4, Homo sapiens, UniProt P31645); binding, radioligand binding: 47.4%
Muscarinic acetylcholine receptor M1 (CHRM1, Homo sapiens, UniProt P11229); cell-free assay: 88.8%

Block 2 — observed: peptide-MHC binding; form: peptide; concentration: concentration not given; endpoint: binding
Target: HLA class I histocompatibility antigen, C alpha chain, allele C*04:01 (Homo sapiens, UniProt P10321)
YTPEQWWPF: inactive
YMRERLSDF: inactive
GFYLSGHLF: inactive
TVIDVNTGK: inactive
YQYIFLSFF: inactive

Block 3 — method: protein-binding microarray; form: double-stranded DNA, one strand shown; matrix: in vitro; concentration: 0.8 µM; setting: whole 60-bp probe, no competitor; reading: higher = stronger binding; endpoint: fluorescence intensity; constant ends, left off below: … GTCTTGATTCGCTTGACGCTGCTG
Target: Centromere-binding protein 1, full length, N-terminal tag (CBF1, Saccharomyces cerevisiae, UniProt P17106, residues 1-351)
Sequence of UniProt P17106 (whole entry, looked up): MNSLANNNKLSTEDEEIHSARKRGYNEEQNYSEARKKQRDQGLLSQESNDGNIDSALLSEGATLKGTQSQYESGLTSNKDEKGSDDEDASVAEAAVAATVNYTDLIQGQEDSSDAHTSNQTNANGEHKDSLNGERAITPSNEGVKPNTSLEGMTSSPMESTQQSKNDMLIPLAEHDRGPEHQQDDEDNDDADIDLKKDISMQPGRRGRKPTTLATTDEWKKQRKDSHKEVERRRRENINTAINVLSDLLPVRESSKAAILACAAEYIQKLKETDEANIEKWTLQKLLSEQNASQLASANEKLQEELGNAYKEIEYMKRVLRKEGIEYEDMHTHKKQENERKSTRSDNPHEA
TGTACGAAGCTATCCCACACGGGTATAGTAGTTAGG: 497 a.u.
CTATTCACGACACATCACGTGTGTGCTCGTTTATTC: 12800 a.u.
CTACGCGATGTTGCAAGCGTGACAGATCTATACTTC: 673 a.u.
CTAGGTAGTAACTATCCTGATGTTGATCCTAGTTTC: 504 a.u.
GAAATTTTTAAGCAGCATGTGATAATATTCAGGTAG: 2190 a.u.
CTATAATAAATAGTACACGTTGCAGACATATTTTTC: 638 a.u.
CCTAACTACTATAGTCAGATGACATAGCTTCGTACA: 1450 a.u.
CTATTTTTAAAAGCGCACGTTTCTTTTTCTTTGTTC: 753 a.u.

Other studies, line by line — form: peptide; concentration: concentration not given; setting: peptide tiling library; reading: direction not given
QKKAKARAFTISDSGY — binding score (human cyclin A2; peptide binding, competitive growth sequencing; Saccharomyces cerevisiae, cyclin A2-Cln2 fusion strain; relative to: unfused Cln2 strain): -0.634
AAAVRKPIVLKR — motif binding score (Saccharomyces cerevisiae; yeast competitive growth sequencing; relative to: Cln2-only background): -0.246

Some of these lines once more (block 1):
Sodium-dependent noradrenaline transporter (SLC6A2, Homo sapiens, UniProt P23975); binding, radioligand binding: 84%
Sodium-dependent dopamine transporter (SLC6A3, Homo sapiens, UniProt Q01959); binding, radioligand binding: 77.2%
